Assay results pooled from the literature.
Numbered parts are unrelated; each lists some results of a single study.
UniProt P15056, sequence (whole entry, unmodified, looked up): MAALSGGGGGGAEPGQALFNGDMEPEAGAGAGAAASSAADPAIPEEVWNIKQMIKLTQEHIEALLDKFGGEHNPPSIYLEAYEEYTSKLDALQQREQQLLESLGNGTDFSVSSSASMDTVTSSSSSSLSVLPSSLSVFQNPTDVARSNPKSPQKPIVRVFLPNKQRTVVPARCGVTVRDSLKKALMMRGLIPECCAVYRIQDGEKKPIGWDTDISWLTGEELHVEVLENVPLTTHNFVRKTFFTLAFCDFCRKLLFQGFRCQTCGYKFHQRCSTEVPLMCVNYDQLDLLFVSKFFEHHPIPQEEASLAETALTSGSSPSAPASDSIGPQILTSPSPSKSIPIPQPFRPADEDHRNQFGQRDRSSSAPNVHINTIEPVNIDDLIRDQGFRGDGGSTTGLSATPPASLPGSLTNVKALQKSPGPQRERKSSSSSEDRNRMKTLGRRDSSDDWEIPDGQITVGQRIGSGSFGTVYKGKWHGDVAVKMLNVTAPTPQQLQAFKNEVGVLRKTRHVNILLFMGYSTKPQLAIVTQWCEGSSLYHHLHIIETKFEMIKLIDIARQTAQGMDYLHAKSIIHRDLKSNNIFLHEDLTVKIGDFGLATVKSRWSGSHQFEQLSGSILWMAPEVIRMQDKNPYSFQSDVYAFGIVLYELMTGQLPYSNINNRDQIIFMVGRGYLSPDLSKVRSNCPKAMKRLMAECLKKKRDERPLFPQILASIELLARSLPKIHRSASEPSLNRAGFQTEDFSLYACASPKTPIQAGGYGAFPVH
UniProt P50750, sequence (whole entry, looked up): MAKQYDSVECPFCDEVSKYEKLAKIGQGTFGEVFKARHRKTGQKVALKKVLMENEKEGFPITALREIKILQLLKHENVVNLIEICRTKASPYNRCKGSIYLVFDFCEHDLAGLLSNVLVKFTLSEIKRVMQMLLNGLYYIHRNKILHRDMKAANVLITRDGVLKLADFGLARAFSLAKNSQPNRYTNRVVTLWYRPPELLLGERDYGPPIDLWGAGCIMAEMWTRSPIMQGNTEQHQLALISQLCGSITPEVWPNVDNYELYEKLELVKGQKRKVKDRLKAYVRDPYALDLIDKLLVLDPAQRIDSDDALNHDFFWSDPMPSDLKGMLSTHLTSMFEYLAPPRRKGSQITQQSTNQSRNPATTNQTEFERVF
UniProt Q02763, sequence (whole entry, looked up): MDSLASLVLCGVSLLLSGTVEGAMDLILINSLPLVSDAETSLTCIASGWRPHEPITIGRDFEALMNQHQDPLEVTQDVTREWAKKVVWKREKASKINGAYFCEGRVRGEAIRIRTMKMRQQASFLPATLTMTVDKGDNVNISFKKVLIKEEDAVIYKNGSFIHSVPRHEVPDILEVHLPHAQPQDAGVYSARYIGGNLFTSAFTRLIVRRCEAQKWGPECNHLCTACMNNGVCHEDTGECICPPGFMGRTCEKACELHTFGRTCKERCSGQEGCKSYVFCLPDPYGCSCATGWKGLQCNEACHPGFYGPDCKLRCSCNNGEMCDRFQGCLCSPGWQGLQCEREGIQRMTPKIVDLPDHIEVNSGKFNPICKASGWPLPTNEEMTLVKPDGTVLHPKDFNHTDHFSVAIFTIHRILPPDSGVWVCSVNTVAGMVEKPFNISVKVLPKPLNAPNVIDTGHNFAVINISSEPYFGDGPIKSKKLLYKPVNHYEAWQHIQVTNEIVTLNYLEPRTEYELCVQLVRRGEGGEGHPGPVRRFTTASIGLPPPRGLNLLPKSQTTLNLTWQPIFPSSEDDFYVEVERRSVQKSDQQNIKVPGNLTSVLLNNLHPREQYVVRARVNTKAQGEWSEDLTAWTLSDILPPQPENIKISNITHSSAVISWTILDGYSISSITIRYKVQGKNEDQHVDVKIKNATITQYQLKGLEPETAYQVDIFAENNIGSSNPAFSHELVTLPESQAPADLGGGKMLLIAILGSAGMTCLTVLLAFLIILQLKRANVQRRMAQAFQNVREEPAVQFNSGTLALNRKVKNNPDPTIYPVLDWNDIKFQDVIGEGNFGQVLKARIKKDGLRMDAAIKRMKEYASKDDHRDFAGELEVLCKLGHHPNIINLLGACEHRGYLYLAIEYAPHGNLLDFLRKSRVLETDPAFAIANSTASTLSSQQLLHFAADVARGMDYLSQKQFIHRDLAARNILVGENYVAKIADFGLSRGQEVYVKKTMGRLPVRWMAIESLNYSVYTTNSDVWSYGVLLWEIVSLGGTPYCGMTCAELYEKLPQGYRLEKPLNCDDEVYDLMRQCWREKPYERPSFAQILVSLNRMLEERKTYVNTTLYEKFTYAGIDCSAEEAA
UniProt P23458, sequence (whole entry, looked up): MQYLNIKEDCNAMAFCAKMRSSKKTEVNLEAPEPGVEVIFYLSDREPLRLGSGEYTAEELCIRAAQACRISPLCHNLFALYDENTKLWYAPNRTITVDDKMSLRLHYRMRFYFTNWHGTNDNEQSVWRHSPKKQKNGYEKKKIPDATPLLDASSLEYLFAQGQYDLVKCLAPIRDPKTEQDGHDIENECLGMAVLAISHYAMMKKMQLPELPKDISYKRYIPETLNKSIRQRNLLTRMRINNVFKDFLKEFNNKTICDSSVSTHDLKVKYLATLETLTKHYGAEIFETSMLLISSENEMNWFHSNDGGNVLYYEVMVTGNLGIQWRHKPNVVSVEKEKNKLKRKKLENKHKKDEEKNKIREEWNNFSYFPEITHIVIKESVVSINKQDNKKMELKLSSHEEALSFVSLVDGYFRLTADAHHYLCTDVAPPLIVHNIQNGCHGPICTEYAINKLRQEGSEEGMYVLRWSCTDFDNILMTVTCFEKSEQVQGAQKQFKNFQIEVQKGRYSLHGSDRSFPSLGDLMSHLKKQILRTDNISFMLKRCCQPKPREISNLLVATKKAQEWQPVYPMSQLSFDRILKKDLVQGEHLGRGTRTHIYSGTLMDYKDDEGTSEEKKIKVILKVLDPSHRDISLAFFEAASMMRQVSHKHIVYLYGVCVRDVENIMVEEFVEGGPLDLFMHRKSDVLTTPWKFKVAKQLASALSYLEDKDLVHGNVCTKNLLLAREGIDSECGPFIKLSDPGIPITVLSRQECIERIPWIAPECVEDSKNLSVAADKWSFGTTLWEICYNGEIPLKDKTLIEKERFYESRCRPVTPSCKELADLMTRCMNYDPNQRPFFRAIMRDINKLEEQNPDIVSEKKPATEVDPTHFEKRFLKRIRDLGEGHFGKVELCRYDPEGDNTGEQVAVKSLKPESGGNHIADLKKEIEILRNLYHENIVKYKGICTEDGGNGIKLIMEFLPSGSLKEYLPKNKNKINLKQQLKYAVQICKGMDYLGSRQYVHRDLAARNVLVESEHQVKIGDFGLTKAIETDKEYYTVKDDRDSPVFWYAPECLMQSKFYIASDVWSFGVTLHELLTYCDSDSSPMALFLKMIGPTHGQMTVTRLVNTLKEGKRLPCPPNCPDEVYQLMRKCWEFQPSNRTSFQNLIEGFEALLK
UniProt O75460, sequence (whole entry, looked up): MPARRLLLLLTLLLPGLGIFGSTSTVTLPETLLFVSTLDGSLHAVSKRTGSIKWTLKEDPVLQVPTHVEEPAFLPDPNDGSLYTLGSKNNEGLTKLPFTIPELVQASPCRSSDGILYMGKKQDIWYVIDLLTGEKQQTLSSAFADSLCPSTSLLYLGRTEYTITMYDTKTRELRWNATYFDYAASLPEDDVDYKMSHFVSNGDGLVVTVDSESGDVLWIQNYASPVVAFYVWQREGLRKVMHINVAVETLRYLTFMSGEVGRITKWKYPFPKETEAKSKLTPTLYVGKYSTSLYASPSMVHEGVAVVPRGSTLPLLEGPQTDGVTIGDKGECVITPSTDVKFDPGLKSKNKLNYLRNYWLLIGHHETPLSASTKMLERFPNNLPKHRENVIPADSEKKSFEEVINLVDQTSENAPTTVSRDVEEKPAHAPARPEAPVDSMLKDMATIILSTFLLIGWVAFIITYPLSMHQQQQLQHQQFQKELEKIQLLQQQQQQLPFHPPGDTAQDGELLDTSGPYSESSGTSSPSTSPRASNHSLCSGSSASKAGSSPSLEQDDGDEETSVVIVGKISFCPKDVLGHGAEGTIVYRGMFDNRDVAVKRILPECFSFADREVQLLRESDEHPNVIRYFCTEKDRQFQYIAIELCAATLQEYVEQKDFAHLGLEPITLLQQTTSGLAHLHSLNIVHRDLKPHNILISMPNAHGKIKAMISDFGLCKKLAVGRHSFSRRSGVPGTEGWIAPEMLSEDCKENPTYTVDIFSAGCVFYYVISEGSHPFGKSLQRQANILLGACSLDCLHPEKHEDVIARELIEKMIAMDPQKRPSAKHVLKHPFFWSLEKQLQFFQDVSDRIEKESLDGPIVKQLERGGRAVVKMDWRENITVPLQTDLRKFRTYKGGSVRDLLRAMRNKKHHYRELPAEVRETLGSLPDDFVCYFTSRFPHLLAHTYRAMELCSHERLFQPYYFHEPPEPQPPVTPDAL

Block 1
Compound: C[C@H]1CC[C@H](n2c3cnccc3c3cnc(Nc4ccc5c(n4)CCN(C(=O)CO)C5)nc32)CC1
Read-out: cell-free assay
Concentration: 1 µM
Quantity: remaining signal
DAPK1 (Homo sapiens, UniProt P53355): 91%
PRKACA (Homo sapiens, UniProt P17612): 100%
LRRK2 (Homo sapiens, UniProt Q5S007, G2019S): 32%
PAK5 (Homo sapiens, UniProt Q9P286): 100%
TSSK1B (Homo sapiens, UniProt Q9BXA7): 91%
DYRK2 (Homo sapiens, UniProt Q92630): 13%
EGFR (Homo sapiens, UniProt P00533, T790M): 61%
PRKX (Homo sapiens, UniProt P51817): 65%
CSNK2A2 (Homo sapiens, UniProt P19784): 0.15%
EIF2AK4 (Homo sapiens, UniProt Q9P2K8, S808G): 100%
STK17A (Homo sapiens, UniProt Q9UEE5): 100%
MAPK4 (Homo sapiens, UniProt P31152): 90%
JAK1 (Homo sapiens, UniProt P23458): 4.1%
ERN1 (Homo sapiens, UniProt O75460): 55%
BRSK1 (Homo sapiens, UniProt Q8TDC3): 57%

Block 2
Species: human
Medium: microsomes or S9
Concentration: 2 µM
Time: 0.5 h
Quantity: remaining compound
COc1cc(=O)n2c(c1C(=O)NCc1ccccc1Cl)CCCC2: 40.7%
COc1ccc(CN2C(=O)C3=C(C#N)c4ccccc4Oc4cccc2c43)cc1: 97.1%
COc1ccc(-n2ccnc2-c2nccn2[C@@H]2c3ccccc3C[C@@H]2O)cc1: 39%
CN(C)CCCNC(=O)c1c(OCC2CC2)cc(=O)n2c1CCCCC2: 96.6%
c1ccc(C2CCCN2Cc2ccc3occc3c2)nc1 (stereo not shown): 64.6%
O=C1C=C(N(Cc2ccc(Cl)nc2)Cc2cnc(Cl)s2)CO1: 71.1%
Clc1nn2c(-c3ccccc3)nnc2c2ccccc12: 1.31%
O=C(CCCOc1ccc(F)cc1F)Nc1ccc2nc[nH]c(=O)c2c1: 44.1%
CCC(CC)(CC)S(=O)(=O)Cc1csc(C(C)(C)C)n1: 0.191%
Cc1ccc(NC(=O)c2cc3ccccc3n2C)c(OCC(=O)N(C)C)c1: 54.5%
COC(=O)[C@@H](OC(C)(C)C)c1c(C)nc2c(c(C)c(C)n2CC2CCO2)c1-c1ccc2c(c1)CCCO2 (stereo partly shown): 2.85%
O=C(c1csc(-c2ccsc2)n1)N(Cc1ncc[nH]1)c1cccc(F)c1: 4.98%
Cc1cc(C)cc(N(C(=O)Cc2cccs2)C(C(=O)NC2CCCC2)c2ccncc2)c1 (stereo not shown): 5.36%

Block 3
Target: MAP kinase-interacting serine/threonine-protein kinase 1 (MKNK1, Homo sapiens, UniProt Q9BUB5)
UniProt Q9BUB5, sequence (whole entry, looked up): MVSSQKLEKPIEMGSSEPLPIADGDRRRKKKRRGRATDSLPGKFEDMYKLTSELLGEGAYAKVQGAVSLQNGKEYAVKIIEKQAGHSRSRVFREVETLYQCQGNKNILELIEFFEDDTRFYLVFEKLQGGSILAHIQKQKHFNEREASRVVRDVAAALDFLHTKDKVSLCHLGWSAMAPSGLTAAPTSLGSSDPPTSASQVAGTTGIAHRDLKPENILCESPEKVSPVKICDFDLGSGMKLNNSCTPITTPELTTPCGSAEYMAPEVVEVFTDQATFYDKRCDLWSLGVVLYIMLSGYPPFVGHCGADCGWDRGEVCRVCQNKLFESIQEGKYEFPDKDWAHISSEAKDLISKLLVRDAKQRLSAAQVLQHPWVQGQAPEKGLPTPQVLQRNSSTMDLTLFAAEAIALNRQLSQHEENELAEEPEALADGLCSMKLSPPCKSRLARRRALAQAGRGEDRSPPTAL
Read-out: enzyme activity
Action: inhibitor
Concentration: 0.5 µM
Relative to: control
Quantity: remaining activity
CN(C)c1ccc(C=C2C(=O)Nc3ccccc32)cc1: 97.3%
Nc1ccc2ncnc(NCCc3ccc(Oc4ccccc4)cc3)c2c1: 106%
O=C(O)c1ccc2c3c1cccc3c(=O)n1c3ccccc3nc21: 60.3%
Cc1nc(-c2ccccc2)c(-c2ccncc2)o1: 123%
O=S(=O)(c1cccc2cnccc12)N1CCCNCC1: 91.8%
COc1ccc(CNC(=O)Nc2ncc([N+](=O)[O-])s2)cc1: 98.4%
N#CC(C#N)=C(N)/C(C#N)=C/c1ccc(O)cc1: 77.2%
Cc1cccc(-c2[nH]c(C(C)(C)C)nc2-c2ccc3c(c2)OCO3)n1: 86.8%
COc1ccc(OC)c2c(=S)c3ccccc3[nH]c12: 115%
Cn1c2ccccc2c2c3c(c4c5ccccc5n(CCC#N)c4c21)CNC3=O: 75.2%
OCC(O)CCON=C1C(c2c(O)[nH]c3ccccc23)=Nc2ccccc21 (stereo not shown): 95.3%
COc1cc2ncnc(Nc3ccc(F)c(Cl)c3)c2cc1OCCCN1CCOCC1: 41.9%
O=c1c2ccccc2[nH]c(=S)n1CCN1CCC(=C(c2ccc(F)cc2)c2ccc(F)cc2)CC1: 101%
COc1cc2ncnc(Nc3ccc(Oc4ccccc4)cc3)c2cc1OC: 98.9%
NCCNc1ncc(C(N)=O)c(Nc2cccc(C(F)(F)F)c2)n1: 98.2%

Block 4
SMILES: O=C(NC[C@@H]1[C@H]2CN(C(=O)OCc3cc(C(F)(F)F)cc(C(F)(F)F)c3)C[C@@H]12)c1ccc2[nH]nnc2c1
Concentration: 1 µM
Quantity: remaining binding
BRAF (Homo sapiens, UniProt P15056, V600E); cell-free assay, competition with immobilised ligand: 100%
MAP4K1 (Homo sapiens, UniProt Q92918); cell-free assay, competition with immobilised ligand: 83%
BMPR1A (Homo sapiens, UniProt P36894); binding, competition with immobilised ligand: 100%
CDK9 (Homo sapiens, UniProt P50750); cell-free assay, competition with immobilised ligand: 91%
MAP3K5 (Homo sapiens, UniProt Q99683); cell-free assay, competition with immobilised ligand: 13%
CSF1R (Homo sapiens, UniProt P07333); cell-free assay, competition with immobilised ligand: 99%
SGK1 (Homo sapiens, UniProt O00141); cell-free assay, competition with immobilised ligand: 100%
MATK (Homo sapiens, UniProt P42679); cell-free assay, competition with immobilised ligand: 100%
TEK (Homo sapiens, UniProt Q02763); cell-free assay, competition with immobilised ligand: 89%
FLT4 (Homo sapiens, UniProt P35916); cell-free assay, competition with immobilised ligand: 88%
EGFR (Homo sapiens, UniProt P00533, G719C); cell-free assay, competition with immobilised ligand: 100%
PTK2 (Homo sapiens, UniProt Q05397); cell-free assay, competition with immobilised ligand: 100%
RET (Homo sapiens, UniProt P07949, V804M); cell-free assay, competition with immobilised ligand: 88%
CDK5 (Homo sapiens, UniProt Q00535); cell-free assay, competition with immobilised ligand: 100%
FLT3 (Homo sapiens, UniProt P36888, N841I); cell-free assay, competition with immobilised ligand: 90%
PIK3CA (Homo sapiens, UniProt P42336, H1047L); cell-free assay, competition with immobilised ligand: 100%
Tyrosine-protein kinase ABL1, phosphorylated (ABL1, Homo sapiens, UniProt P00519, F317I); binding: 88%
CSNK1G1 (Homo sapiens, UniProt Q9HCP0); cell-free assay, competition with immobilised ligand: 97%
BRAF (Homo sapiens, UniProt P15056); cell-free assay, competition with immobilised ligand: 98%
FES (Homo sapiens, UniProt P07332); cell-free assay, competition with immobilised ligand: 95%
FLT3 (Homo sapiens, UniProt P36888, R834Q); cell-free assay, competition with immobilised ligand: 88%

Repeated from above (block 2):
COc1ccc(-n2ccnc2-c2nccn2[C@@H]2c3ccccc3C[C@@H]2O)cc1: 39%
CN(C)CCCNC(=O)c1c(OCC2CC2)cc(=O)n2c1CCCCC2: 96.6%
c1ccc(C2CCCN2Cc2ccc3occc3c2)nc1 (stereo not shown): 64.6%
O=C1C=C(N(Cc2ccc(Cl)nc2)Cc2cnc(Cl)s2)CO1: 71.1%
Clc1nn2c(-c3ccccc3)nnc2c2ccccc12: 1.31%
O=C(CCCOc1ccc(F)cc1F)Nc1ccc2nc[nH]c(=O)c2c1: 44.1%
CCC(CC)(CC)S(=O)(=O)Cc1csc(C(C)(C)C)n1: 0.191%
Cc1ccc(NC(=O)c2cc3ccccc3n2C)c(OCC(=O)N(C)C)c1: 54.5%
